Assay results collected from several papers.
Each line is one published result; not all experiments were run side by side. Converted amounts (≈) assume the structure as drawn.

CN1CCCN(c2cnc3c(cc(C(=O)NCc4ccc(Cl)cc4)c(=O)n3CC(=O)N3CC(C)(F)C3)n2)C1=O — thermodynamic solubility (aqueous buffer; 24 h, pH 7.4, 37 °C): < 1.56 µM
Cc1ccc(C(NC(=O)c2cc(-c3ccccc3)n(-c3ccccc3)n2)c2ccncc2)cc1 (centres unmarked) — thermodynamic solubility (PBS; pH 7.4): 0.44 µg/mL
COc1cccc2c(NCc3ccccc3)nc(Nc3cccc(F)c3)nc12 — solubility (aqueous buffer; pH 6.2): < 0.01 µg/mL
OCC1OC(n2cnc3c(NCc4ccc(Br)s4)ncnc32)C(O)C1O (centres unmarked) — solubility (simulated gastric fluid; pH 1.2, acidic): 7600 µg/mL
CC[C@H](C)[C@@H]1NC(=O)[C@H](Cc2ccc(O)cc2)NC(=O)CSC[C@@H](C(N)=O)NC(=O)[C@H](CC(N)=O)NC(=O)[C@H](Cc2c[nH]cn2)NC(=O)[C@H](Cc2ccc(O)cc2)NC(=O)[C@H](CC(=O)O)NC(=O)[C@H](Cc2ccc(F)c(F)c2)NC(=O)[C@H](CC(C)C)NC(=O)[C@H](CCCNC(=N)N)NC1=O — kinetic solubility (PBS; pH 7.4): 136 µM (≈ 193 µg/mL)
CC1(C)CN(C(=O)Cn2c(=O)c(C(=O)NCc3ccc(Cl)cc3)cc3cccnc32)C1 — thermodynamic solubility (aqueous buffer; 24 h, pH 7.4, 37 °C): < 1.56 µM
CN(C)C(=O)c1ccnc(N2Cc3cn(Cc4ccc(Cl)cc4)nc3C2)n1 — solubility (water): > 100 µM
COc1cccc2c(NCc3ccccc3)nc(Nc3cccc(Cl)c3)nc12 — solubility (aqueous buffer; pH 6.2): 0.05 µg/mL
